{"data": "Experimental data of several laboratories", "note": "Every numbered part comes from another study and shows a few of its results, in no order. Values joined by “and” are separate records of one study, mostly repeats; a detail may differ.", "sequence of UniProt Q13422 (whole entry, looked up)": "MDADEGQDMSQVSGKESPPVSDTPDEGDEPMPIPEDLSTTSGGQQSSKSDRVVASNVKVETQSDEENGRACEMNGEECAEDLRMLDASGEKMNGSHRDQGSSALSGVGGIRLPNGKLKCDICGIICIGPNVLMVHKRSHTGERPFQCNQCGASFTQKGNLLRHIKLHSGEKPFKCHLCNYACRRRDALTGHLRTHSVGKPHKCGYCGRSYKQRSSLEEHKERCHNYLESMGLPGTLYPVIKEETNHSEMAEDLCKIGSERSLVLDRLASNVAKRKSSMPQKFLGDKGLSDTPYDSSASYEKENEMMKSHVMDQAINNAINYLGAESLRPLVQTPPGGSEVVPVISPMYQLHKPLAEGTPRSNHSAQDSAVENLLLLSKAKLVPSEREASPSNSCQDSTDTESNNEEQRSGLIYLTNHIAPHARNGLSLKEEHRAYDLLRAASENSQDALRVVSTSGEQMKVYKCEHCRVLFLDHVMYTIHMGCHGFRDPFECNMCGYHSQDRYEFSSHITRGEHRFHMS", "sequence of UniProt Q16832 (whole entry, looked up)": "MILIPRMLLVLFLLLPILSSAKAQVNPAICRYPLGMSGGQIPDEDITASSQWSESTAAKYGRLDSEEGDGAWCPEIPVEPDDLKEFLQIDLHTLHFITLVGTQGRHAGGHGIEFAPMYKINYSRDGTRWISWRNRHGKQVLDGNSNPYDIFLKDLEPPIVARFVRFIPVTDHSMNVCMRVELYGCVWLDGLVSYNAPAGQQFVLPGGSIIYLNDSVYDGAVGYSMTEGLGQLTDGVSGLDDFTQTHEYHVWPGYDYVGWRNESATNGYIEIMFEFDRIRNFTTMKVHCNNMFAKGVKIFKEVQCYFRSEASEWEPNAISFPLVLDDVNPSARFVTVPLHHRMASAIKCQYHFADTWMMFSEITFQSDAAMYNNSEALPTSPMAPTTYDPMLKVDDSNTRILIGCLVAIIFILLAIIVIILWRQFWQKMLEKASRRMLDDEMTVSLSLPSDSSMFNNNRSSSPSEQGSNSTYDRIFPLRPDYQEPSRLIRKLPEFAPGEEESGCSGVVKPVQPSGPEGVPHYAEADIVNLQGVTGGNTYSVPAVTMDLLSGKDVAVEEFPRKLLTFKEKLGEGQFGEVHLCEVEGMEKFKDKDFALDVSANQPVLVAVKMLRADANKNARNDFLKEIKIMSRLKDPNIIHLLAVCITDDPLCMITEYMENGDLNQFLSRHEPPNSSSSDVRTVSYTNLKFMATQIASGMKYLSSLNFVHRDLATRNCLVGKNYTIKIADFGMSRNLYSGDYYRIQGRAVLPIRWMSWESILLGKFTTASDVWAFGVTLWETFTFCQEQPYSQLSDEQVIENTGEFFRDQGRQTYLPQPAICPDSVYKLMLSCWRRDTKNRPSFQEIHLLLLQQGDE"}
{"data": "Set 1", "SMILES": "CC(C)C[C@@H]1NC(=O)[C@@H](N(C)C(=O)[C@@H](NC(=O)[C@@H]2C[C@@H](F)CN2C(=O)C2(C(F)(F)F)CC(F)(F)C2)C2CC2)CCCCCCCN(C)C(=O)[C@H](Cc2cc(Cl)cnc2OC2CC2)N(C)C1=O", "route": "oral"}
{"system": "NSG mice, sample B SCLC PDX", "setting": "100 mg/kg twice daily, day 26", "tumour volume": "348 mm3 and 308 mm3 and 223 mm3 and 395 mm3 and 282 mm3"}
{"system": "NSG mice, sample B SCLC PDX", "setting": "100 mg/kg twice daily, day 5", "tumour volume": "241 mm3 and 214 mm3 and 253 mm3 and 182 mm3 and 183 mm3"}
{"system": "NSG mice, sample B SCLC PDX", "setting": "100 mg/kg twice daily, day 12", "tumour volume": "295 mm3 and 194 mm3 and 204 mm3 and 214 mm3 and 288 mm3"}
{"system": "mouse, sample A SCLC PDX", "setting": "100 mg/kg three times daily, day 18", "tumour volume": "186 mm3 and 301 mm3 and 281 mm3 and 185 mm3 and 264 mm3"}
{"system": "mouse, sample A SCLC PDX", "setting": "100 mg/kg three times daily, day 7", "tumour volume": "130 mm3 and 148 mm3 and 193 mm3 and 144 mm3"}
{"system": "mouse, sample A SCLC PDX", "setting": "100 mg/kg three times daily, day 0", "tumour volume": "144 mm3 and 190 mm3 and 174 mm3 and 240 mm3"}
{"data": "Set 2", "SMILES": "NC/C(=C\\F)COc1cc(Cn2c(=S)[nH]c(=O)c3[nH]ccc32)ccc1Cl", "target": "Myeloperoxidase (MPO, Homo sapiens, UniProt P05164)", "observed": "enzyme activity", "sequence of UniProt P05164 (whole entry, looked up)": "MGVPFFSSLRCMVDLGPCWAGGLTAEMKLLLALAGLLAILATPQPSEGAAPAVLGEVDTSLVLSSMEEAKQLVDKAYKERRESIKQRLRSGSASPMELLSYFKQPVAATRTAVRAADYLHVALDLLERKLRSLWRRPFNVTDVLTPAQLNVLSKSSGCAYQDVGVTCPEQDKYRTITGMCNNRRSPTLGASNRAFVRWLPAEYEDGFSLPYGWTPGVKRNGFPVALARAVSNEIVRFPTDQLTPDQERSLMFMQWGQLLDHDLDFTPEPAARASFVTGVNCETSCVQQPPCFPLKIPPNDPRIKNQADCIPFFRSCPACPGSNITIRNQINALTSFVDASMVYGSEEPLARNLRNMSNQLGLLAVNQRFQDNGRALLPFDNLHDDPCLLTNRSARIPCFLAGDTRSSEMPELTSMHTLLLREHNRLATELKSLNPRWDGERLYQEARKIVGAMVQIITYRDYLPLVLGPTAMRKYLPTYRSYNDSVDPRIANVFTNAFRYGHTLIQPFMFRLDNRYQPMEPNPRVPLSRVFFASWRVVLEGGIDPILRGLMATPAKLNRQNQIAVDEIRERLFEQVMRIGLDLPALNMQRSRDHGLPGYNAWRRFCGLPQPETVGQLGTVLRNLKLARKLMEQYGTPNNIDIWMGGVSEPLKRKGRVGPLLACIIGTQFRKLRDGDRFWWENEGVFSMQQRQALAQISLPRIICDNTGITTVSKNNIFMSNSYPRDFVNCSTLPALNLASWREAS"}
{"test": "inhibitor, fluorescence", "setting": "1.111 µM", "inhibition": "98.6%"}
{"setting": "3.333 µM", "inhibition": "99.2%"}
{"setting": "0.3704 µM", "inhibition": "97.8%"}
{"setting": "30 µM", "inhibition": "100%"}
{"setting": "0.0046 µM", "inhibition": "27.3% and 33.7%"}
{"setting": "1.111 µM", "inhibition": "99.5%"}
{"test": "inhibitor, fluorescence", "setting": "0.3704 µM", "inhibition": "98.3%"}
{"data": "Further values, each from its own experiment"}
{"Compound": "Cc1ncsc1-c1ccc(C(CO)NC(=O)C2CC(O)CN2C(=O)C(NC(=O)c2ccc(COc3c(-c4c(C)c(F)cc5[nH]ncc45)c(C4CC4)cc4c(N5CC6CC5CN6)nc(OC5CCOCC5)nc34)cc2)C(C)C)cc1 (stereo not shown)", "target or system": "AsPC-1", "test": "CellTiter-Glo", "setting": "100 nM, 6 days", "quantity": "viability", "value": "42.3% and 64.9% and 75.9%"}
{"Compound": "O=C(Nc1ccccc1)Nc1cccc(Oc2ccc3nccn3n2)c1", "target or system": "DDR2 (Homo sapiens, UniProt Q16832)", "test": "cell-free assay", "setting": "1 µM", "quantity": "inhibition", "value": "1%"}
{"Compound": "Cc1ncsc1-c1ccc(C(CO)NC(=O)C2CC(O)CN2C(=O)C(C(C)C)n2cc(-c3ccc(COc4c(-c5c(C)c(F)cc6[nH]ncc56)c(C5CC5)cc5c(N6CC7CC6CN7)nc(OC6CCOCC6)nc45)cc3)nn2)cc1 (stereo not shown)", "system": "mouse, HPAC xenograft", "setting": "30 mg/kg once weekly, day 7", "quantity": "body weight", "value": "23.5 g"}
{"Compound": "Cn1cc(-c2cccc(CN3CCC4(CC3)COc3c4ccc4c3CN([C@@H]3CCC(=O)NC3=O)C4=O)c2)cn1", "target or system": "DNA-binding protein Ikaros (Homo sapiens, UniProt Q13422)", "test": "degrader, HiBiT", "system": "HEK293", "setting": "370.37 nM", "quantity": "remaining protein", "value": "98%"}
{"Compound": "Cc1ncsc1-c1ccc(C2(NC(=O)C3CC(O)CN3C(=O)C(NC(=O)c3ccc(COc4c(-c5c(C)c(F)cc6[nH]ncc56)c(C5CC5)cc5c(N6CC7CC6CN7)nc(OC6CCOCC6)nc45)cc3)C(C)(C)C)CC2)cc1 (stereo not shown)", "target or system": "AsPC-1", "test": "in-cell ELISA", "setting": "3 µM, individual replicates", "quantity": "phospho-ERK1/2 level", "value": "19.6% and 21.3% and 18.6% and 17.5% and 11.3% and 19%"}
{"Compound": "Cc1ncsc1-c1ccc(C2(NC(=O)C3CC(O)CN3C(=O)C(NC(=O)c3ccc(COc4c(-c5c(C)c(F)cc6[nH]ncc56)c(C5CC5)cc5c(N6CC7CC6CN7)nc(OC6CCOCC6)nc45)cc3)C(C)C)CC2)cc1 (stereo not shown)", "target or system": "AsPC-1", "test": "cell growth, CellTiter-Glo", "quantity": "IC50", "value": "292 nM and 344 nM and 289 nM"}
{"note": "For quick reference, copied from above (further values, each from its own experiment):"}
{"Compound": "Cn1cc(-c2cccc(CN3CCC4(CC3)COc3c4ccc4c3CN([C@@H]3CCC(=O)NC3=O)C4=O)c2)cn1", "target or system": "DNA-binding protein Ikaros (Homo sapiens, UniProt Q13422)", "test": "degrader, HiBiT", "system": "HEK293", "setting": "370.37 nM", "quantity": "remaining protein", "value": "98%"}
{"Compound": "Cc1ncsc1-c1ccc(C2(NC(=O)C3CC(O)CN3C(=O)C(NC(=O)c3ccc(COc4c(-c5c(C)c(F)cc6[nH]ncc56)c(C5CC5)cc5c(N6CC7CC6CN7)nc(OC6CCOCC6)nc45)cc3)C(C)(C)C)CC2)cc1 (stereo not shown)", "target or system": "AsPC-1", "test": "in-cell ELISA", "setting": "3 µM, individual replicates", "quantity": "phospho-ERK1/2 level", "value": "19.6% and 21.3% and 18.6% and 17.5% and 11.3% and 19%"}
